Measurements gathered from unrelated publications.
Compare with care: the assays were run in different laboratories. Numbers after ± are the reported error.

Compound | assay | system | setting | Cmax
O=C(CCCCCCC(=O)Nc1ccccc1)NO |  | patients, serum | oral, 800 mg, cycle 1, together with: flavopiridol | 4.8 µM
Cc1cc(Nc2cc3ncccc3c(N[C@@H]3C[C@H]4CC[C@@H](C3)N4CCC#N)n2)n[nH]1 |  | beagle dog, male, plasma | oral, 30 mg/kg/day, last day of 39 weeks | 70.3 ng/mL
CC1=C2C[C@H]3[C@@H](CC[C@@H]4C[C@H](NS(C)(=O)=O)CC[C@@]43C)[C@@H]2CC[C@@]2(C1)O[C@@H]1C[C@H](C)CN[C@H]1[C@H]2C |  | patients, plasma | oral, 200 mg single, day -7, cycle 1 | 123 ng/mL
CS(=O)(=O)Nc1ccc(C(=O)O[C@@H](Cc2c(Cl)c[n+]([O-])cc2Cl)c2ccc(OC(F)F)c(OCC3CC3)c2)cc1OCC1CC1 |  | human, plasma | inhaled, 600 µg once daily, day 1, single-dose dry powder inhaler | 0.29 ng/mL
CC(C)NC[C@@H](C(=O)N1CCN(c2ncnc3c2[C@H](C)C[C@H]3O)CC1)c1ccc(Cl)cc1 |  | human, mild hepatic impairment (Child-Pugh), plasma | oral, 100 mg single dose, geometric mean | 53 ng/mL
CCCC[C@H](NC(C)=O)C(=O)N[C@H]1CCC(=O)NC[C@@H](C(=O)N[C@@H](Cc2c[nH]c3ccccc23)C(N)=O)NC(=O)[C@H](CCCNC(=N)N)NC(=O)[C@@H](Cc2ccccc2)NC(=O)[C@H](Cc2c[nH]cn2)NC1=O |  | beagle dog, female, plasma | subcutaneous, 8.0 mg/kg daily, day 1 | 615 ng/mL
CC(C)=CCC[C@](C)(O[C@@H]1O[C@H](CO)[C@@H](O)[C@H](O)[C@H]1O)[C@H]1CC[C@]2(C)[C@@H]1[C@H](O)C[C@@H]1[C@@]3(C)CC[C@H](O[C@@H]4O[C@H](CO)[C@@H](O)[C@H](O)[C@H]4O[C@@H]4O[C@H](CO)[C@@H](O)[C@H](O)[C@H]4O)C(C)(C)[C@@H]3CC[C@]12C |  | Sprague-Dawley rat, plasma | oral, 2000 mg/kg ginseng extract, control diet 2 weeks before dosing | 906 ± 330 ng/mL
C=CC(N)CCC(=O)O (stereo not shown) |  | male Sprague-Dawley rat, plasma | oral, 1.0 mg/kg, formulation 1 | 1400 ± 124 ng/mL
O=c1[nH]c(=O)c(Cc2cccc(C(F)(F)F)c2)c([C@H]2CC[C@H](c3ccccc3)CC2)[nH]1 |  | human, plasma | oral, 150 mg once daily, day 1, SDD suspension, fasted, geometric mean | 100 ng/mL
C=CC(=O)N1CCC[C@@H](n2c(=O)n(-c3ccc(Oc4ccccc4)cc3)c3c(N)nccc32)C1 |  | cynomolgus monkey, male | oral, 10 mg/kg | 4.8 ng/mL
CCN1CCN(c2ccc(Nc3cc(N(C)C(=O)Nc4c(Cl)c(OC)cc(OC)c4Cl)ncn3)cc2)CC1 | LC-MS/MS | juvenile female Crl:WI(Han) rats, plasma | oral gavage, 1.0 mg/kg/day, postnatal day 17 | 41.2 ng/mL
CO[C@H]1C[C@@H]2CC[C@@H](C)[C@@](O)(O2)C(=O)C(=O)N2CCCC[C@H]2C(=O)O[C@H]([C@H](C)C[C@@H]2CC[C@@H](O)[C@H](OC)C2)CC(=O)[C@H](C)/C=C(\C)[C@@H](O)[C@@H](OC)C(=O)[C@H](C)C[C@H](C)/C=C/C=C/C=C/1C |  | human, whole blood | oral, 16 mg, without ketoconazole | 47.4 ng/mL
Cc1nc2cccc(OCC(C)(C)C(=O)NC(C)C)c2c(N)c1C(=O)O |  | Sprague-Dawley rat both sexes, plasma | dietary, 100 mg/kg/day, day 7 | 114 ng/mL

A few entries again:
Compound | assay | system | setting | Cmax
O=c1[nH]c(=O)c(Cc2cccc(C(F)(F)F)c2)c([C@H]2CC[C@H](c3ccccc3)CC2)[nH]1 |  | human, plasma | oral, 150 mg once daily, day 1, SDD suspension, fasted, geometric mean | 100 ng/mL
C=CC(=O)N1CCC[C@@H](n2c(=O)n(-c3ccc(Oc4ccccc4)cc3)c3c(N)nccc32)C1 |  | cynomolgus monkey, male | oral, 10 mg/kg | 4.8 ng/mL
